Measured values pooled from the literature.
Protocols differ between the studies behind these lines.
Target: Mitogen-activated protein kinase 9 (MAPK9, Homo sapiens, UniProt P45984)
Sequence of UniProt P45984 (whole entry, looked up): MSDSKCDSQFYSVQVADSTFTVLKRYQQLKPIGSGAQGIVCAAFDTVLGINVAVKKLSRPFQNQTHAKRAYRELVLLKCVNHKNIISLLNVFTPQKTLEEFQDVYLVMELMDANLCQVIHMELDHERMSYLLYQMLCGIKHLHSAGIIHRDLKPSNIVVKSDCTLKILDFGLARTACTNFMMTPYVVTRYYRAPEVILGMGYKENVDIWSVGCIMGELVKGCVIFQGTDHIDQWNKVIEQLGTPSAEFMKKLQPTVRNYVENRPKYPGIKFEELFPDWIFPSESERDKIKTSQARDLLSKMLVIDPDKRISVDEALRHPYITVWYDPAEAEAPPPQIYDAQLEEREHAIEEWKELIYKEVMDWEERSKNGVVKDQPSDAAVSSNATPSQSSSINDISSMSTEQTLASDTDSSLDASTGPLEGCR

For C[C@@H](c1ccc(-n2cnc3c(N)ncnc32)cc1)N1CCc2nn(C)c(Cc3ccccc3)c2C1=O, the remaining binding was 40% (KINOMEscan; 0.1 µM; baseline: DMSO control).
With O=C1NC(=O)/C(=C/c2ccc(-c3ccc(F)cc3O)o2)S1 the remaining activity was 85% (enzyme activity; 10 µM).
For CCCOc1ccc(OC)c(F)c1C(=O)c1ccc(C(=O)N[C@@H]2CNC[C@H]2NC(=O)c2ccc3[nH]ncc3c2)cc1, the remaining activity was 92% (enzyme activity; 10 µM).
The binding of C1=C/COCc2cc(ccc2OCCN2CCCC2)Nc2nccc(n2)-c2cccc(c2)COC/1 is reported as 47% (concentration not given, kinase construct JNK2; baseline: control).
For C=CC(=O)N1CCC(COCC(=O)N2CCN(c3nc(-c4cnc(N)nc4C(F)F)nc(N4CCOC[C@@H]4C)n3)CC2)CC1, the remaining binding was 78% (KINOMEscan; 1 µM; baseline: DMSO control).
The remaining activity of Cc1cc(NC(=O)c2cccc(NC(=O)/C=C/CN(C)C)c2)ccc1Nc1nccc(-c2cccnc2)n1 is reported as 0.00665 (enzyme activity, inhibitor; 44.44 µM, unit not given; baseline: vehicle).
The remaining binding of C=CC(=O)N1CCC(C(=O)NCC(=O)N2CCN(c3nc(-c4cnc(N)nc4C(F)F)nc(N4CCOCC4)n3)CC2)CC1 is reported as 89% (KINOMEscan; 1 µM).
O=c1cc(-c2ccc([N+](=O)[O-])cc2)[nH]c2c(-c3ccc(Cl)cc3)c(Cc3ccccc3)nn12: “melting temperature shift” 7.1 °C (thermal stability, binder, thermal proteome profiling; RD, cell lysate; 50 µM, 0.5% DMSO; baseline: DMSO vehicle).
The inhibition of CC[C@@H]1[C@H](F)C(=O)N[C@@H]1COc1nccc2cc(C(N)=O)c(OC)cc12 is reported as -0.3% (ATP probe binding, KiNativ profiling, measured: Lys1 probe site; THP-1 cell lysate; 0.2 mM).

A few entries again:
The remaining activity of Cc1cc(NC(=O)c2cccc(NC(=O)/C=C/CN(C)C)c2)ccc1Nc1nccc(-c2cccnc2)n1 is reported as 0.00665 (enzyme activity, inhibitor; 44.44 µM, unit not given; baseline: vehicle).
